# Assay results pooled from the literature.
# ± gives the spread as reported.
Structure (SMILES),assay,system,conditions,scale,quantity,result
CC(=O)N[C@H](CCCCNC(=O)C(C)F)C(=O)N[C@@H](CS)C(=O)N[C@@H](CS)C(=O)N[C@@H](CCC(=O)O)C(=O)N[C@@H](Cc1c[nH]cn1)C(=O)N[C@H](Cc1ccccc1)C(=O)N[C@@H](CCCNC(=N)N)C(=O)N[C@@H](Cc1c[nH]c2ccccc12)C(=O)N[C@@H](CS)C(=O)N[C@@H](CCCNC(=N)N)C(=O)N1CCC[C@H]1C(=O)N[C@H](C(N)=O)C(C)C (stereo partly drawn) [fluorine-18 labelled],,"male C57BL/6 mice, B16-F10 tumour","intravenous, 1 h",baseline: tumour over blood,tumour to tissue uptake ratio,2.03 ± 0.33
Nc1ccn([C@@H]2O[C@H](CO)[C@@H](O)C2(F)F)c(=O)n1,,"chick embryo day 7, chorioallantoic membrane","topical, 5 d",,LD50,587 µM
Cc1cc(C(C#N)c2ccc(Cl)cc2)c(Cl)cc1NC(=O)c1cc(I)cc(I)c1O (stereo not drawn),"HPLC, non-compartmental","Corriedale lambs, parasitized, plasma","oral, 10 mg/kg, with: moxidectin 0.2 mg/kg oral",,Tmax,36.2 ± 16.6 h
CCCCCOc1ccc(-c2ccc(-c3ccc(C(=O)N[C@H]4C[C@@H](O)[C@@H](O)NC(=O)[C@@H]5[C@@H](O)[C@@H](C)CN5C(=O)[C@H]([C@@H](C)O)NC(=O)[C@H]([C@H](O)[C@@H](O)c5ccc(O)cc5)NC(=O)[C@@H]5C[C@@H](O)CN5C(=O)[C@H]([C@@H](C)O)NC4=O)cc3)cc2)cc1,,"patients aged 5 to <sample A years, plasma","intravenous, loading 3.0 then 1.5 mg/kg daily",,AUC(0-24) steady state mean,86800 ng·h/mL
CN[C@@](C)(C[18F])C(=O)O,,SCID mice (A549 xenograft),120 min after injection,,tumour uptake,5.6 ± 1.3 %ID/g
COc1c(O)cc2oc3cc(O)c(CC=C(C)C)c(O)c3c(=O)c2c1CC=C(C)C,deconjugation HPLC,"Balb/c nu/nu tumour-bearing mice, serum","dose not given, 4 weeks",,total serum concentration,2.5 ± 0.2 µg/mL
CCCCCCCCCCCCCCCC[N+](C)(C)C,in vitro-in vivo extrapolation,human,,,hepatic clearance,0.262 mL/h/g liver
Oc1cccc2ccccc12,fish short-term reproduction,"Oryzias latipes, female, water, flow-through","80.0 µg/L, end of exposure",,body length,39.3 ± 0.3 mm
[123I]c1cncc(OC[C@@H]2CCN2)c1,SPECT,"human, frontal lobe","intravenous bolus plus infusion, 7.7 mCi",baseline: tissue over plasma,tissue/plasma ratio,27.9
Cc1cnc(C(=O)N[C@H]2CCCCC/C=C\[C@@H]3C[C@@]3(C(=O)NS(=O)(=O)C3CC3)NC(=O)[C@@H]3C[C@@H](Oc4nc5ccccc5c5ccccc45)CN3C2=O)cn1,,healthy volunteers,"oral, dose not given, without digoxin",,AUCtau,5660 ng·h/mL
O=C(c1ccc(F)c(F)c1Nc1ccc(I)cc1F)N1CC(O)([C@@H]2CCCCN2)C1,measured: retinal detachment,human patients,"oral, 1 mg/kg, dose expansion, grade G3",,treatment-related adverse events,0%
O[C@H]1CCCN[C@@H]1CCCn1cnc2c(Cl)c(Cl)ccc21,,"healthy human volunteers, plasma","oral, 100 mg, day 1, multiple ascending dose",,MRT,6.84 h

# Repeated from above:
Structure (SMILES),assay,system,conditions,scale,quantity,result
[123I]c1cncc(OC[C@@H]2CCN2)c1,SPECT,"human, frontal lobe","intravenous bolus plus infusion, 7.7 mCi",baseline: tissue over plasma,tissue/plasma ratio,27.9
